Assay results of several laboratories.
Compare with care: the assays were run in different laboratories. ± marks the error that the study gave.

CC[C@H]1[C@@H](O)[C@@H]2[C@H](CC[C@]3(C)[C@@H]([C@H](C)CCOS(=O)(=O)[O-])CC[C@@H]23)[C@@]2(C)CC[C@@H](O)C[C@@H]12.[Na+] — result for “whole-body lean mass”: 30.3 ± 0.6% (EchoMRI; ob/ob NASH mouse model; oral, 3 mg/kg once daily, before treatment, baseline of 8 week study; baseline: body weight).
CCCC[C@H](NC(=O)[C@@H](NC(=O)[C@H](CC(=O)O)NC(=O)[C@H](CCC(N)=O)NC(=O)[C@H](CC(C)C)NC(=O)[C@H](CC(C)C)NC(=O)[C@H](CCCN)NC(=O)[C@H](CCCNC(=N)N)NC(=O)[C@H](C)NC(=O)[C@H](CO)NC(=O)[C@H](CC(C)C)NC(=O)[C@H](CCC(N)=O)NC(=O)[C@H](CC)NC(=O)[C@H](CC(C)C)NC(=O)[C@@H](NC(=O)[C@H](CCCN)NC(=O)[C@H](CCCNC(=N)N)NC(=O)[C@H](Cc1ccc(O)cc1)NC(=O)[C@H](CO)NC(=O)[C@H](CCC(N)=O)NC(=O)[C@@H](NC(=O)[C@H](Cc1ccccc1)NC(=O)[C@@H](NC(=O)[C@H](C)NC(=O)[C@H](CC(=O)O)NC(=O)[C@H](C)NC(=O)CCc1ccc(O)cc1)[C@@H](C)CC)[C@@H](C)O)C(C)C)[C@@H](C)CC)C(=O)N[C@@H](CC(=O)O)C(=O)NCCCCNC(=N)N — result for “serum GH level”: 198 ± 18.1 ng/mL (GH release, ELISA; male rat, anaesthetised, serum; intravenous, 1 µg/kg, 15 min).
Cc1ccc(CN2C(=O)/C(=N\c3ccc(Cl)cc3Br)c3ccccc32)cc1 — result for “M2 macrophages in TAMs”: 18.9% (flow cytometry; mouse tumour model, tumour tissue; ip, 10 mg/kg).
For CCC1CC2C(C)=CC3C(=O)CCCC3C=CC(C)=CC2C(=O)O1 (stereo not shown), “Aβ plaque number reduction” read 25.3% (thioflavin S staining; 5XFAD transgenic mouse, cortex; oral gavage, 30 mg/kg/day, 5 days; baseline: untreated).
CCCCCCOC(=O)Cc1c(C)n(C(=O)c2ccc(Cl)cc2)c2ccc(OC)cc12 gave a writhing count of 14.7 ± 1.89 (BALB/c mice, acetic acid writhing; intraperitoneal, 10 mg/kg, 20 min count).
Cc1ccc(-c2oc3ccccc3c(=O)c2OCc2ccccc2)cc1 — result for “serum total cholesterol”: 149 ± 4.8 mg/dL (diabetic rat; 5 mg/kg, 28 days, p-nitrophenyl β-glucoside induced).
O=C(O)[C@H]1O[C@@H](Oc2cc(O)c3c(=O)cc(-c4ccc(O)cc4)oc3c2)[C@H](O)[C@@H](O)[C@@H]1O: “creatine kinase activity” “decreased” (decreased; Kunming mice, isoprenaline-induced myocardial infarction, serum; intravenous, 30 mg/kg daily for 7 days, day 7; baseline: model group).
CN(C)c1ccc(-c2oc3ccccc3c(=O)c2OCc2ccccc2)cc1: “serum alkaline phosphatase” 197 ± 4.11 IU (diabetic rat; 5 mg/kg, p-nitrophenyl β-glucoside induced).
For CC[C@@]1(c2cccc(C(F)(F)F)c2)C2=C(Nc3n[nH]cc31)[C@H](F)C(C)(C)CC2=O (single isomer, unassigned), “number of off-target kinases” read 6 (kinobead chemoproteomics; rat, postnatal day 10, brain; 60 mg/kg, 3 h, target engagement above 70%, excluding GSK3α, of 251 kinases).
CCCC[C@H](NC(=O)[C@@H](NC(=O)[C@H](CC(=O)O)NC(=O)[C@H](CCC(N)=O)NC(=O)[C@H](CC(C)C)NC(=O)[C@H](CC(C)C)NC(=O)[C@H](CCCN)NC(=O)[C@H](CCCNC(=N)N)NC(=O)[C@H](C)NC(=O)[C@H](CO)NC(=O)[C@H](CC(C)C)NC(=O)[C@H](CCC(N)=O)NC(=O)[C@H](CC)NC(=O)[C@H](CC(C)C)NC(=O)[C@@H](NC(=O)[C@H](CCCN)NC(=O)[C@H](CCCNC(=N)N)NC(=O)[C@H](Cc1ccc(O)cc1)NC(=O)[C@H](CO)NC(=O)[C@H](CCC(N)=O)NC(=O)[C@@H](NC(=O)[C@H](Cc1ccccc1)NC(=O)[C@@H](NC(=O)[C@H](C)NC(=O)[C@H](CC(=O)O)NC(=O)[C@@H](C)NC(=O)[C@H](Cc1ccc(O)cc1)NC)[C@@H](C)CC)[C@@H](C)O)C(C)C)[C@@H](C)CC)C(=O)N[C@@H](CC(=O)O)C(=O)N[C@@H](CCCNC(=N)N)C(=O)NCCCCC(N)=O: “serum GH level” 309 ± 33.5 ng/mL (GH release, ELISA; male Sprague-Dawley rat, anaesthetised, serum; subcutaneous, 3 µg/kg, 15 min).
Cc1cc(O)c(C=O)c2c1C(=O)Oc1c(CO)c(O)c3c(c1O2)C(O)OC3=O (stereo not shown) gave a serum insulin of 5.98 ± 0.13 mIU/L (streptozotocin-induced diabetic male rats, serum; 5 mg/kg, 9 weeks).
CCCCCCCCCCCCCCCC(=O)N[C@@H](CCC(=O)NCCCC[C@H](NC(=O)[C@H](CC(=O)O)NC(=O)[C@H](CO)NC(=O)[C@@H](NC(=O)[C@H](Cc1ccccc1)NC(=O)[C@@H](NC(=O)CNC(=O)[C@H](CCC(N)=O)NC(=O)[C@H](CO)NC(=O)[C@@H](N)Cc1c[nH]cn1)[C@@H](C)O)[C@@H](C)O)C(=O)N[C@@H](CO)C(=O)N[C@@H](CCC(=O)O)C(=O)N[C@@H](Cc1ccc(O)cc1)C(=O)N[C@@H](CC(C)C)C(=O)N[C@@H](CC(=O)O)C(=O)N[C@@H](CO)C(=O)N[C@@H](CCC(=O)O)C(=O)N[C@@H](CCCNC(=N)N)C(=O)N[C@@H](C)C(=O)N[C@@H](CCCNC(=N)N)C(=O)N[C@@H](CC(=O)O)C(=O)N[C@@H](Cc1ccccc1)C(=O)N[C@H](C(=O)N[C@@H](C)C(=O)N[C@@H](Cc1c[nH]c2ccccc12)C(=O)N[C@@H](CC(C)C)C(=O)N[C@@H](CCC(=O)O)C(=O)N[C@@H](C)C(=O)NCC(=O)NCC(=O)O)C(C)C)C(=O)O: “body weight loss” 5% (male cynomolgus monkey; subcutaneous, 8 nmol/kg/day for 8 weeks, day 57; baseline: starting body weight).
CC(C)(O)c1ccc(N2Cc3c(ccnc3-c3ccc(F)cc3OCC(F)(F)F)C2=O)cc1 gave a glucosylsphingosine level of 99 ± 6% (Gaucher disease mouse model, plasma; 10 mg/kg, single dose; baseline: vehicle).
O=c1c(OCc2ccccc2)c(-c2ccc(Cl)cc2)oc2ccccc12: “serum alkaline phosphatase” 182 IU (diabetic rat; 7.5 mg/kg, p-nitrophenyl β-glucoside induced).
[2H]C([2H])([2H])C(c1cc2nnc(-c3cc(F)ccc3F)n2nc1OCc1ncnn1C)(C([2H])([2H])[2H])C([2H])([2H])[2H] — result for “seizure severity change”: -1.8 (amygdala-kindled Wistar rats; oral, 1 mg/kg, 2 h before stimulation, Racine scale, unit not given; baseline: baseline).
CCOP(=O)(CC(=O)Nc1ccc(S(=O)(=O)N(CC(N)=O)c2ccc(N(CC(N)=O)S(=O)(=O)c3ccc(OC)cc3)c3ccccc23)cc1)OCC — result for “GPX4 protein level”: “increased” (Western blot; APP/PS1 mice, hippocampus and frontal cortex; 40 mg/kg; baseline: untreated APP/PS1 mice).
Cc1cc2c(cc1C1(c3ncc(C(=O)O)cn3)CC1)C(C)(C)CCC2(C)C: “log2 fold change” -0.13 (RNA sequencing, item: Arl11 mRNA; rat, brain; dose not given, 24 h, single dose; baseline: vehicle).
C=CC(=O)N1C[C@H](C)N(c2nc(OC[C@@]34CCCN3C[C@H](F)C4)nc3c(F)c(-c4ccc(F)c5sc(N)c(C#N)c45)c(C(F)(F)F)cc23)C[C@H]1C gave a pERK inhibition of 73% (MIA PaCa-2 Matrigel plug, mouse; oral, 10 mg/kg single dose, 6 h).
For CCCC[C@H](NC(=O)[C@@H](NC(=O)[C@H](CC(=O)O)NC(=O)[C@H](CCC(N)=O)NC(=O)[C@H](CC(C)C)NC(=O)[C@H](CC(C)C)NC(=O)[C@H](CCCN)NC(=O)[C@H](CCCNC(=N)N)NC(=O)[C@H](C)NC(=O)[C@H](CO)NC(=O)[C@H](CC(C)C)NC(=O)[C@H](CCC(N)=O)NC(=O)[C@H](CC)NC(=O)[C@H](CC(C)C)NC(=O)[C@@H](NC(=O)[C@H](CCCN)NC(=O)[C@H](CCCNC(=N)N)NC(=O)[C@H](Cc1ccc(O)cc1)NC(=O)[C@H](CO)NC(=O)[C@H](CCC(N)=O)NC(=O)[C@@H](NC(=O)[C@H](Cc1ccccc1)NC(=O)[C@@H](NC(=O)[C@H](C)NC(=O)[C@H](CC(=O)O)NC(=O)[C@@H](C)NC(=O)[C@H](Cc1ccc(O)cc1)N(C)C(C)=O)[C@@H](C)CC)[C@@H](C)O)C(C)C)[C@@H](C)CC)C(=O)N[C@@H](CC(=O)O)C(=O)NCCCCNC(=N)N, “serum GH level” read 65.4 ± 10.1 ng/mL (GH release, ELISA; male Sprague-Dawley rat, anaesthetised, serum; subcutaneous, 3 µg/kg, 30 min).
COc1ccc2c(c1)c(CC(=O)OCC(=O)OC(C)(C)C)c(C)n2C(=O)c1ccc(Cl)cc1 has a writhing count of 12.5 ± 1.67 (BALB/c mice, acetic acid writhing; intraperitoneal, 20 mg/kg, 20 min count).
COc1c2c(cc3oc(C)cc(=O)c13)O[C@H](C(C)(C)O[C@@H]1O[C@H](CO)[C@@H](O)[C@H](O)[C@H]1O)C2: “ear edema weight increase” 6.64 ± 0.18 mg (mouse, xylene ear edema; oral, 1 mg/kg).
CCCCOc1nc(N)c2[nH]c(=O)n(CCCN(CCCN3CCOCC3)Cc3cccc(CC(=O)OC)c3)c2n1: “duration of effect” at least 26 days (rat, Brown Norway, ovalbumin-sensitised; intratracheal, eight once-weekly doses).

Some of these lines once more:
CN(C)c1ccc(-c2oc3ccccc3c(=O)c2OCc2ccccc2)cc1: “serum alkaline phosphatase” 197 ± 4.11 IU (diabetic rat; 5 mg/kg, p-nitrophenyl β-glucoside induced).
COc1c2c(cc3oc(C)cc(=O)c13)O[C@H](C(C)(C)O[C@@H]1O[C@H](CO)[C@@H](O)[C@H](O)[C@H]1O)C2: “ear edema weight increase” 6.64 ± 0.18 mg (mouse, xylene ear edema; oral, 1 mg/kg).
C=CC(=O)N1C[C@H](C)N(c2nc(OC[C@@]34CCCN3C[C@H](F)C4)nc3c(F)c(-c4ccc(F)c5sc(N)c(C#N)c45)c(C(F)(F)F)cc23)C[C@H]1C gave a pERK inhibition of 73% (MIA PaCa-2 Matrigel plug, mouse; oral, 10 mg/kg single dose, 6 h).
CCOP(=O)(CC(=O)Nc1ccc(S(=O)(=O)N(CC(N)=O)c2ccc(N(CC(N)=O)S(=O)(=O)c3ccc(OC)cc3)c3ccccc23)cc1)OCC — result for “GPX4 protein level”: “increased” (Western blot; APP/PS1 mice, hippocampus and frontal cortex; 40 mg/kg; baseline: untreated APP/PS1 mice).
